# Measurements pooled from the literature.
# Values joined by “and” are separate records of one study, mostly repeats; a detail may differ. ± marks the error that the study gave.
# WD repeat-containing protein 91: WD repeat-containing protein 91 (Homo sapiens, UniProt A4D1P6)
# Sequence of UniProt A4D1P6 (whole entry, looked up): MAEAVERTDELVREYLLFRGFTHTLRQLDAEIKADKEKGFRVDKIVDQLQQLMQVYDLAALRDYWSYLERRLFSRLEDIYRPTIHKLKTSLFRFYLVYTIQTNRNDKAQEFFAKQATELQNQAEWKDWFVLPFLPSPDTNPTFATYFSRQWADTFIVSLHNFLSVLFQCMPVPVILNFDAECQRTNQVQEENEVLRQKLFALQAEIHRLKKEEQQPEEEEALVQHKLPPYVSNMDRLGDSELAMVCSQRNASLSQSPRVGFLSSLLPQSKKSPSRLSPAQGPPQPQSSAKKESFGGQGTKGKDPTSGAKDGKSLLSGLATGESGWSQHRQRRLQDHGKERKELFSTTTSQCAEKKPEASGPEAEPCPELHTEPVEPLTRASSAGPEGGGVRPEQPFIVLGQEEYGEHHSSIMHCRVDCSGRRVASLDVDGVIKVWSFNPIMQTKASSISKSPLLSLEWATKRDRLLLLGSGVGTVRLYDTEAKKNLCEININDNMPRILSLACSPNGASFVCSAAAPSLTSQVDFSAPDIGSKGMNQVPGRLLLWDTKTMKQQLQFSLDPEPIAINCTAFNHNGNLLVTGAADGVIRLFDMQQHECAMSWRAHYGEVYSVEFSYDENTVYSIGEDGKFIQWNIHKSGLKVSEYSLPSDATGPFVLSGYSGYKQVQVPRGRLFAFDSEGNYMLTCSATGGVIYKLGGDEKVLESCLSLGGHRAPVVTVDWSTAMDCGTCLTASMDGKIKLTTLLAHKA
# WD repeat-containing protein 91 WD40 domain, residues 392–747: WD repeat-containing protein 91, WD40 domain, residues 392–747 (Homo sapiens, UniProt A4D1P6)
# NAA80: N-alpha-acetyltransferase 80 (NAA80, Homo sapiens, UniProt Q93015)
# Sequence of UniProt Q93015 (whole entry, looked up): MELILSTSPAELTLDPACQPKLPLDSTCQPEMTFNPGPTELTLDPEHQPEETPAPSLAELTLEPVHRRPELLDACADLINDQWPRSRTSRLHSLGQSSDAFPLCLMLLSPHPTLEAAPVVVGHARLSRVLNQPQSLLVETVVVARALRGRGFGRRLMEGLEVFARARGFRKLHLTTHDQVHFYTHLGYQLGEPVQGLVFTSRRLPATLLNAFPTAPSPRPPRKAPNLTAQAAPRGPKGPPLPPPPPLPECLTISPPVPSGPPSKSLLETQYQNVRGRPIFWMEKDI
# Genome polyprotein NS3 helicase domain: Genome polyprotein, NS3 helicase domain (Hepatitis C virus genotype 1b, UniProt Q9WMX2)
# ESR1: Estrogen receptor (ESR1, Homo sapiens, UniProt P03372)
# Sequence of UniProt P03372 (whole entry, looked up): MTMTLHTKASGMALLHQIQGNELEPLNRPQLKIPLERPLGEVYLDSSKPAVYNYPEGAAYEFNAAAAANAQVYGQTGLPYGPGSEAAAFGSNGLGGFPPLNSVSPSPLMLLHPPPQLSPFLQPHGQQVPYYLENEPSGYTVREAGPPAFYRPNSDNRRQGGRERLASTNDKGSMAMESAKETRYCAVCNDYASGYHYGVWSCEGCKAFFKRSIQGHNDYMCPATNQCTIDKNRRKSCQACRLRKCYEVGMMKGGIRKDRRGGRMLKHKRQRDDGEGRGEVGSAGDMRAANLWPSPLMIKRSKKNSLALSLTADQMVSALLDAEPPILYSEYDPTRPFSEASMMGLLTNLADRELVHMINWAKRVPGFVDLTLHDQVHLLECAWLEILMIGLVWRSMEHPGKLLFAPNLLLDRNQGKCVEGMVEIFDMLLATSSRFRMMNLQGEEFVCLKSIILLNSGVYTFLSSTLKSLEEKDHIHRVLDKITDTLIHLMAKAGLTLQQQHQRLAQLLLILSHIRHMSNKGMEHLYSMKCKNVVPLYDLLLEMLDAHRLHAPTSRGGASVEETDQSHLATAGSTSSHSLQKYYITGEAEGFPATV
# Sequence of UniProt P51575 (whole entry, unmodified, looked up): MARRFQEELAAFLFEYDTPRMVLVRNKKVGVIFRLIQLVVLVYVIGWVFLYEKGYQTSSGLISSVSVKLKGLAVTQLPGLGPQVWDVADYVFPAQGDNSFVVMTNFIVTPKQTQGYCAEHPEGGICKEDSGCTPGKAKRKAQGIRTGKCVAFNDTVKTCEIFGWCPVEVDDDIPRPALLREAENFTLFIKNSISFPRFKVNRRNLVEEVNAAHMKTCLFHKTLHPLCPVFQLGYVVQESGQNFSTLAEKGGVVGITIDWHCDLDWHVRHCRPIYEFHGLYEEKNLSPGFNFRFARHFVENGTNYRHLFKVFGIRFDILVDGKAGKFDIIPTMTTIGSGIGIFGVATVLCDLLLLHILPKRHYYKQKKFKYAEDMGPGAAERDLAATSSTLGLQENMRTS
Compound,target,assay,system,conditions,scale,endpoint,result
O=C(NC1CCCS(=O)(=O)c2ccccc21)c1ccc2nc(O)cnc2c1 (centres unmarked),WD repeat-containing protein 91,"binding, SPR steady state",,0.2344 µM,,SPR response,2.02 RU
CCN1CCCC1CNC(=O)c1cc(S(N)(=O)=O)ccc1OC (centres unmarked),"DRD3 (Homo sapiens, UniProt P35462)","Go activation, antagonist, BRET",,,,maximal inhibition,102 ± 1%
N#Cc1cccc2c1CC[C@H]2NC(=O)c1ccc(OCc2nc3ccccc3s2)cc1,"WD repeat-containing protein 91 WD40 domain, residues 392–747","binding, SPR single-concentration screen",,45 µM,,SPR response,-16.9 RU and -8.4 RU
Cn1cc(-n2cnc3c(NCc4nc5cc(Cl)c(Cl)cc5[nH]4)nc(N4CCOCC4)nc32)cn1,"Cyclin-dependent kinase 12, with cyclin K (CDK12, Homo sapiens, UniProt Q9NYV4)","kinase activity, inhibitor, ADP-Glo",,2 µM,,inhibition,91.5%
O=C(COP(=O)(O)O)[C@@H](O)[C@H](O)[C@H](O)COP(=O)(O)O,"SEC23-interacting protein (Homo sapiens, UniProt Q9Y6Y8)","thermal proteome profiling, item: SEC23IP",HepG2 cell lysate,"concentration not given, 57 over 37 °C, mean",reference: compound over control,thermal stability ratio,0.441
CCn1c(=O)[nH]c2cc(C(=O)NC(c3ccc(F)cc3)c3cnn(C)c3)ccc2c1=O (centres unmarked),WD repeat-containing protein 91,"binding, SPR steady state",,7.5 µM,,SPR response,27.2 RU
Nc1ncnc2c1ncn2[C@@H]1O[C@H](COP(=O)(O)CP(=O)(O)OP(=O)(O)O)[C@@H](O)[C@H]1O,"P2X purinoceptor 1 (P2RX1, Homo sapiens, UniProt P51575, E282A)",saturation binding,HEK293,103 nM,,specific binding,2520 CCPM and 1560 CCPM
CC(C)[C@H](NC(=O)c1cc(-c2cnn3cc(-c4ccc(OCCN5CCCCC5)cc4)cnc23)cs1)C(F)(F)F,"WNK1 (Homo sapiens, UniProt Q9H4A3)",radiometric kinase,,15 nM,reference: WNK1 over ULK1,relative inhibition,0.0455
NC(N)=O,NAA80,"substrate, DTNB",,"2 mM, 30 min, 37 °C, with: acetyl-CoA 500 µM",,product formation,1.58 µM
O=S(=O)(c1cccc(C(F)(F)F)c1)N1CCc2ccc(OCc3c(F)cncc3Cl)cc21,"RORC (Homo sapiens, UniProt P51449)","reporter gene, agonist, GAL4 luciferase reporter",,with: ursolic acid 2 µM,reference: DMSO,maximum fold change,0.76 ± 0.12
COc1cc(/C=C/C(=O)C(=Cc2ccccc2)C(=O)/C=C/c2ccc(O)c(OC)c2)ccc1O,haemin,"binding, isothermal titration calorimetry",,"pH 7.4, 37 °C",,ΔS,-219 ± 7.21 J/(mol·K)
N#Cc1ccc2[nH]cc(CCCCN3CCN(c4ccc5oc(C(N)=O)cc5c4)CC3)c2c1,"SLC6A4 (Homo sapiens, UniProt P31645, Y95F)","[3H]5-HT uptake, inhibitor",COS-7,,,Hill coefficient,1.31 ± 0.15
O=C(O)/C(=C/c1c(C(=O)O)[nH]c2cc(Cl)cc(Cl)c12)c1ccccc1,Genome polyprotein NS3 helicase domain,"DNA binding, inhibitor",hepatitis C virus,"100 µM, with: Cy5-dT15 DNA",,inhibition,0%
O=C(/C=C/c1ccc(O)cc1)c1ccccc1,ESR1,array formation,PRL-HeLa,,reference: EC50 ERβ over EC50 ERα,selectivity ratio,8.54
CCCN1C[C@H](CSC)C[C@@H]2c3cccc4[nH]cc(c34)C[C@H]21,"Glutamate receptor 2 (Homo sapiens, UniProt P42262)","ion current, positive allosteric modulator, SyncroPatch patch clamp",HEK293,30 µM,,potentiation,99%
CC(=O)[C@H]1CC[C@H]2[C@@H]3CC=C4C[C@@H](OS(=O)(=O)[O-])CC[C@]4(C)[C@H]3CC[C@]12C.[Na+],Genome polyprotein NS3 helicase domain,"DNA binding, inhibitor",hepatitis C virus,"100 µM, with: Cy5-dT15 DNA",,inhibition,1%
C[C@H](N)C(=O)O,NAA80,"substrate, DTNB",,"2 mM, 30 min, 37 °C, with: acetyl-CoA 500 µM",,product formation,-1.45 µM
O=O,"HIF1AN (Homo sapiens, UniProt Q9NWT6, E105A)","substrate, MALDI-TOF MS",,"pH 7.00, 37.0 °C, mutant E105A, with: CTAD peptide 80 µM, 2-oxoglutarate 100 µM",,Km,250 ± 44 µM
CC(=O)C(=O)O,"Uncharacterized protein (Chromohalobacter israelensis, UniProt Q1QT90)","binder, thermal shift",,,,delta Tm,2.5 °C
O=c1nc(SCc2cc(F)cc(C(F)(F)F)c2)nc(SCc2ccc3nc(Cl)ccc3c2)[nH]1,"TOP2A (Homo sapiens, UniProt P11388)",decatenation,,"15.6 µM, replicate 1",,decatenated DNA,30%
Cc1sc(NC(=O)c2ccccc2I)c(C(=O)O)c1C,"Voltage-gated potassium channel, KQT; KCNQ2(Kv7.2)/KCNQ3(Kv7.3) (KCNQ3/KCNQ2, Homo sapiens, UniProt O43525+O43526)","G(V) shift, activator, two-electrode voltage clamp",Xenopus oocytes,"pH 7.4, up to 100 µM, at -17.2 mV",,EC50,197 µM
[O-][S+]1CCCCS1 (centres unmarked),"SOD1 (Homo sapiens, UniProt P00441, G94A)",one-compartment model,"SOD1 G93A transgenic mice, whole blood","iv, 10 mg/kg",,alpha rate constant,0.0264 h⁻¹
Oc1ccc(/C=C/c2cc(O)cc(O)c2)cc1,"O-methyltransferase (Sorghum bicolor, UniProt A0A1B6PFV1)",,,"concentration not given, with: ADN+",,ΔH of binding,-14.4 ± 0.161 kcal/mol
CN1CCCCC1Cc1cn(Cc2ccc(C(=O)N3CCC(C#N)CC3)cc2)nn1 (centres unmarked),"WD repeat-containing protein 91 WD40 domain, residues 392–747","binding, SPR single-concentration screen",,45 µM,,SPR response,-2.7 RU and -8.7 RU
N=C(NC1CCN(c2ncnc3c2nc(-c2ccccc2Cl)n3-c2ccc(Cl)cc2)CC1)c1ccc(F)cc1,"CNR1 (Homo sapiens, UniProt P21554)","antagonist, FLIPR calcium mobilisation",CHO-K1 expressing CNR1 and Gαq16,with: CP55940,,Ke,170 nM
O=C1NC(=O)/C(=C/c2ccc(-c3ccc(F)cc3O)o2)S1,Genome polyprotein NS3 helicase domain,"DNA binding, inhibitor",hepatitis C virus,"100 µM, with: Cy5-dT15 DNA",,inhibition,0%
CC[C@H](C)[C@H](NC(=O)[C@H](CCCCN)NC(=O)CNC(=O)[C@@H](NC(=O)[C@@H](NC(=O)[C@H](CCSC)NC(=O)[C@H](Cc1c[nH]cn1)NC(=O)CN)[C@@H](C)O)C(C)C)C(=O)N[C@@H](Cc1ccc(O)cc1)C(=O)N[C@@H](C)C(=O)N[C@@H](C)C(=O)N[C@@H](CCSC)C(=O)N[C@@H](CCSC)C(=O)N[C@H](C(=O)N[C@@H](CCSC)C(=O)N[C@@H](CCC(=O)O)C(=O)N[C@@H](C)C(=O)N[C@@H](Cc1ccc(O)cc1)C(=O)N[C@@H](CCCNC(=N)N)C(=O)N[C@@H](CCC(N)=O)C(=O)N[C@@H](CO)C(=O)N[C@@H](CCCCN)C(=O)N[C@@H](C)C(=O)N[C@@H](CCCCN)C(=O)N[C@@H](CCCCN)C(=O)N[C@@H](CC(C)C)C(=O)N[C@@H](CCC(N)=O)C(=O)N[C@@H](C)C(=O)N[C@@H](CCSC)C(=O)N[C@@H](CCCNC(=N)N)C(=O)O)[C@@H](C)CC,"Calmodulin-1, Ca2+-bound N-lobe (CALM1, Homo sapiens, UniProt P0DP23)","binding, isothermal titration calorimetry",,"N-lobe, CaV2.1 IQ domain, unit not given, with: Ca2+",reference: wild-type IQ domain,ΔΔG,-1.56
O=C1CC[C@H](N2Cc3cc(N4CCN(CC5CCN(c6ccc([C@@H]7c8ccc(O)cc8CC[C@@H]7c7ccccc7)cc6)CC5)CC4)ccc3C2=O)C(=O)N1,ESR1,"degrader, western blot",breast cancer cell lines,"concentration not given, ER, wild type and mutant",,degradation,≥ 90%
O=c1c2ccccc2[nH]c(=S)n1CCN1CCC(=C(c2ccc(F)cc2)c2ccc(F)cc2)CC1,Genome polyprotein NS3 helicase domain,"DNA binding, inhibitor",hepatitis C virus,"100 µM, with: Cy5-dT15 DNA",,inhibition,1%
COc1ccc(-c2oc3c(CC=C(C)C)c(O[C@@H]4O[C@H](CO)[C@@H](O)[C@H](O)[C@H]4O)cc(O)c3c(=O)c2O[C@@H]2O[C@@H](C)[C@H](O)[C@@H](O)[C@H]2O)cc1,ESR1,array formation,PRL-HeLa,,reference: EC50 ERβ over EC50 ERα,selectivity ratio,2.05
O=C(O)CCCCC1CCSS1 (racemic),Genome polyprotein NS3 helicase domain,"DNA binding, inhibitor",hepatitis C virus,"100 µM, with: Cy5-dT15 DNA",,inhibition,0%
C[C@]12CC[C@@H]3c4ccc(O)cc4C[C@@H](CCCCCCCCC[S+]([O-])CCCC(F)(F)C(F)(F)F)[C@H]3[C@@H]1CC[C@@H]2O (some centres unmarked),ESR1,"antagonist, CALUX reporter",U2OS,3e-09 µg/mL,,antagonist response,48.8%
